Measurements gathered from unrelated publications.
Several values in a cell are separate wells, animals, samples, runs or records. ± marks the error that the study gave.

SMILES	assay	test system	setting	how to read	endpoint	result
CN(CCNCc1cc(C(=O)[O-])ccc1[O-])CCNCc1cc(C(=O)[O-])ccc1[O-].[Cl-].[Fe+3].[K+].[K+]		human serum albumin 35 mg/mL	pH 7.4, 33 °C, 1.4 T		r1 relaxivity	1.5 ± 0.1 mM⁻¹ s⁻¹
N=C(N)NCCC[C@@H]1NC(=O)[C@H](CCCNC(=N)N)NC(=O)[C@@H](C(c2ccccc2)c2ccccc2)NC(=O)[C@H](Cc2c[nH]c3ccccc23)NC(=O)[C@@H](C(c2ccccc2)c2ccccc2)NC(=O)[C@@H](CCCNC(=N)N)NC(=O)[C@@H](CCCNC(=N)N)NC1=O		bacterial membrane liposomes	5 µg/mL, 50 min		calcein leakage	38%
COc1cc2c(NC3CCN(C(C)C)CC3)cc(N3CCOCC3)nc2cc1OCCCN1CCCC1	TMT proteomics, refers to: PGAM1	5xFAD mice, hippocampus	dose not given	baseline: untreated 5xFAD mice	log2 fold change	0.0478
N[C@@H](CNC(=O)N[C@@H](CS)C(=O)NCC(=O)O)C(=O)O	anti-DNP immunoblot	mouse C57BL/6, Aβ i.c.v. model, brain	intranasal, dose not given	baseline: Aβ-only	protein carbonylation	1.5 fold
C[C@H](NC(=O)COC(=O)[C@H](C)NC(=O)CO)C(=O)O		water	pH 2, 50 °C		backbone scission rate constant	0.0051 h⁻¹
COc1cccc(OCCN2CCC[C@H](CN3CCc4cc(OC)c(OC)cc4CC3=O)C2)c1		C57BL/6J mouse, male, stress-naive	intraperitoneal, 5 mg/kg, 14 d post-dose	baseline: before dosing	time in centre, open field	no effect
CC(C)C[C@H](NC(=O)CNC(=O)[C@H](CCC(N)=O)NC(=O)[C@H](CC(C)C)NC(=O)[C@H](CC(C)C)NC(=O)[C@H](CCCNC(=N)N)NC(=O)[C@H](CCC(N)=O)NC(=O)[C@H](CC(C)C)NC(=O)[C@H](CCCNC(=N)N)NC(=O)[C@H](C)NC(=O)CNC(=O)[C@H](CCC(=O)O)NC(=O)[C@H](CCCNC(=N)N)NC(=O)[C@H](CC(C)C)NC(=O)[C@H](CCCNC(=N)N)NC(=O)[C@H](CO)NC(=O)[C@H](CC(C)C)NC(=O)[C@H](CCC(=O)O)NC(=O)[C@H](CO)NC(=O)[C@@H](NC(=O)[C@H](Cc1ccccc1)NC(=O)[C@@H](NC(=O)CNC(=O)[C@H](CC(=O)O)NC(=O)C(C)(C)NC(=O)[C@@H](N)Cc1c[nH]cn1)[C@@H](C)O)[C@@H](C)O)C(=O)N[C@@H](CC(C)C)C(=O)N[C@@H](CCC(N)=O)C(=O)NCC(=O)N[C@@H](CC(C)C)C(=O)N[C@H](C(=O)NCC(=O)N[C@@H](CCCCNC(=O)COCCOCCNC(=O)COCCOCCNC(=O)CC[C@H](NC(=O)CCCCCCCCCCCCCCCCC(=O)O)C(=O)O)C(N)=O)C(C)C		DIO C57BL/6J mice	sc, 300 nmol/kg twice daily, end of 8 days		plasma free fatty acids	no effect
CN1CCC[C@]1(C)/C=C/S(=O)(=O)NC(=O)Nc1c2c(cc3c1CCC3)CCC2		human, whole blood ex vivo	50 mg twice daily, day 1, 6 h, multiple ascending dose, with: LPS and ATP		IL-1β inhibition	99.3%
CN1CCCNC(=O)c2cccc(c2)C(=O)NCCCN(C)CCCNc2cccc3c2C(=O)c2cccc(c2C3=O)NCCC1		SAS xenograft, KSN/Slc nude mice	dose not given, 48 h (day 2), group mean		tumour volume	102 mm3
COC1CN([C@H]2CC[C@H]([C@@]3(C)Oc4c(Cl)cc(C(=O)NCc5c(SC)cc(C)[nH]c5=O)c(C)c4O3)CC2)C1	RNA-seq, refers to: HIC1	human, whole blood	dose not given, 24 h	baseline: pretreatment baseline	log2 fold change	1.08
CC(C)(C)NCC(SS(=O)(=O)O)c1ccccc1 (centres unmarked)		Swiss Webster mice, Schistosoma mansoni-infected	600 mg/kg single dose on day 15 post-infection, perfusion day 44 post-infection		spleen weight	0.26 g
COc1cc(O)ccc1CCC(c1ccc(O)cc1)c1cc2c(c(C)c1O)OC(c1ccc(O)cc1)CC2 (mixture of isomers)	refers to: 14-HDHA	human whole blood	0.3 µM, with: Escherichia coli		amount	8910 ± 3170 pg/mL blood
Cc1[nH]nc2c1N=C(c1ccccc1Cl)c1cnc(N3CCOCC3)cc1N2		mouse HCC1806 TNBC xenograft	oral, 15 mg/kg once daily		tumour growth inhibition	80.7%
CC(CCC(=O)NCc1ccc(C(=O)NO)cc1)C1CCC2C3C(O)CC4CC(O)CCC4(C)C3CCC12C (centres unmarked)	refers to: Tauro-conj	PCK rat (Pkhd1 mutant), liver	oral gavage, dose not given, 5 months	baseline: total bile acids	relative abundance	76.6%
COc1ccc2cc3[n+](cc2c1OCCCOC(=O)c1cscn1)CCc1cc2c(cc1-3)OCO2		C57BL/6 mice, high-fat diet	oral gavage, 10 mg/kg daily, 14 weeks	baseline: HFD control	plasma total cholesterol reduction	29.5%
CCCCCc1ccc(S(=O)(=O)N2CC2C(=O)OC)cc1 (centres unmarked)		mouse, Lewis lung carcinoma	intraperitoneal, 5 mg/kg, 16 doses, day 11		tumour volume	216 mm3
CC(=O)[O-].O.O.[O-]c1ccc(Br)cc1C=NCCN1CCOCC1.[Zn+2]	hydroxyl radical scavenging		40 µM		inhibition	8.05%
COc1ccc(C(=O)CCc2cc(C(CCc3ccc(O)cc3OC)c3ccc(O)cc3)c(O)cc2OC)cc1 (racemic)		human blood	10 µM, with: A23187		DHA level	129000 ± 46800 pg/mL
O=C(NS(=O)(=O)c1cccs1)c1cc2ccccc2n1Cc1ccc(Br)c2ccccc12		mouse, chronic hyperuricaemia model, serum	dose not given		blood urea nitrogen	11.7 mM and 10.7 mM and 10 mM and 9.64 mM and 8.36 mM and 14.5 mM
COc1cnc2cccc(N3CCc4c(cc(Cn5ccnc5)cc4-c4cn(C)nc4C(F)(F)F)C3=O)c2c1		BALB/c nude mice, MV4-11 xenograft	intraperitoneal, 75 mg/kg, day 17		tumour volume	134 mm3 and 150 mm3 and 151 mm3 and 128 mm3 and 154 mm3
CC(C)[C@H](NC(=O)[C@H](CC(=O)O)NC(=O)[C@@H](NC(=O)[C@H](Cc1c[nH]c2ccccc12)NC(=O)[C@H](CCC(=O)O)NC(=O)[C@H](C)NC(=O)[C@H](CC(=O)O)NC(=O)CNC(=O)[C@H](Cc1ccc(O)cc1)NC(=O)[C@H](Cc1ccc(OP(=O)(O)O)cc1)NC(=O)[C@H](Cc1ccc(O)cc1)NC(=O)CCNC(=O)c1ccc(C(=O)[O-])c(-c2c3ccc(=[N+](C)C)cc-3oc3cc(N(C)C)ccc23)c1)C(C)C)C(=O)N[C@@H](CO)C(=O)O	immunohistochemistry	ApoE-/- mice, plaque	dose not given, 21 days		Ly6C+ monocyte proportion	19.8 ± 6.27%
CC(C)C[C@H](NC(=O)[C@H](Cc1ccccc1)NC(=O)[C@H](C)NC(=O)[C@@H](CS)NC(=O)CNC(=O)[C@H](N)CO)C(=O)N[C@@H](CO)C(=O)N[C@H](C(=O)N[C@@H](CCCCN)C(=O)N[C@@H](CCCCN)C(=O)N[C@@H](CCC(N)=O)C(=O)N[C@@H](Cc1ccccc1)C(=O)N[C@@H](CCC(=O)O)C(=O)N[C@@H](CCC(=O)O)C(=O)N[C@@H](CC(C)C)C(=O)N[C@H](C(=O)N[C@@H](CC(C)C)C(=O)NCC(=O)N[C@@H](CCC(=O)O)C(=O)N[C@@H](Cc1ccccc1)C(=O)N[C@@H](CC(C)C)C(=O)N[C@H](CCCCN)C(=O)N[C@H](CC(C)C)C(=O)N[C@H](CC(=O)O)C(=O)N[C@@H](CCCNC(=N)N)C(=O)N[C@H](CCCNC(=N)N)C(=O)N[C@@H](CCCNC(=N)N)C(=O)N[C@@H](CCCCN)C(=O)O)[C@@H](C)O)C(C)C		mouse A549 xenograft, tumour	intratumoral and intravenous, dose not given		CD44 cancer cell level	decreased
O=C([O-])CN1Cc2cccc(n2)CN(CC(=O)[O-])Cc2cccc(n2)C1.[Mn+2]		HEPES buffer with NaCl	33 °C, 1.4 T		r1 relaxivity	2.55 mM⁻¹ s⁻¹
